Published values pooled from the literature.
Parts stem from different laboratories: compare values within a part only.

Block 1 — technique: universal PBM; molecule type: double-stranded DNA, one strand shown; medium: in vitro; concentration: not given; direction: higher = stronger binding
Target: Sal-like protein 4, full length isoform B (SALL4, Homo sapiens, UniProt Q9UJQ4-2, residues 1-616)
Setting: 8-mer, flanks averaged, mean of replicates
| Strand | E-score |
| --- | --- |
| GTCACATA | 0.244 |
| CTAACGTC | 0.00715 |
| CCTTCACA | 0.123 |
| GCTCACTA | 0.0117 |
| ACTCACAA | 0.16 |
| AGATAACA | 0.215 |
| GCGGGCCA | -0.261 |
| CTGCTTAC | -0.0376 |
| ACTGGTGG | -0.207 |
| CCGTTGAC | -0.176 |

Block 2 — technique: RNA Bind-n-Seq; molecule type: RNA; medium: in vitro; concentration: not given; setting: RNA with constant flanks, ends assumed; baseline: input RNA pool; direction: higher = stronger binding
Target: RING finger protein unkempt homolog, zinc fingers 1-6, GST-SBP tag (UNK, Homo sapiens, UniProt Q9C0B0, residues 30-357)
Sequence of UniProt Q9C0B0 (30-357, looked up): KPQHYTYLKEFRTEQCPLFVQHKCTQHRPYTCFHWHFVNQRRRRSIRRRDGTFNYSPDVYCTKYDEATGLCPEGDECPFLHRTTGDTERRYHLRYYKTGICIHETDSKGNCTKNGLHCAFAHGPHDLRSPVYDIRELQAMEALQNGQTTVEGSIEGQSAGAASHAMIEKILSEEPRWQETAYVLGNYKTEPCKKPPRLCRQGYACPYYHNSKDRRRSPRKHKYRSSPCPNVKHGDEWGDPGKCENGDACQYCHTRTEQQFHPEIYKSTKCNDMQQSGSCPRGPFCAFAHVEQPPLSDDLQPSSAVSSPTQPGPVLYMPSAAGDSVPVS
Shared flanks, not repeated: GGGAGUUCUACAGUCCGACGAUC … CAACAGAGGAUUGAGCAUCA
| Strand | bound/input enrichment |
| --- | --- |
| GCUUAUAAAGCUGCUAGUGAUAUUGCAAUGACAGAACUUCCACCAACGCAUCCUAUUCGCUCCGGUCUUGCUCUCAAUUUUUCCGUAUUCUACUACGAAAUUCUUAAUUCCCCUGACCGU | 0.42 ratio |
| CGCUGCUGGACAUAUGAGACAUCGCUGCUGGUAGAAGAGGCCAUUAGUGAGGAGCUUCCCUACCGUGAAUACUUCGAGUACUUUGCCCCAGACUUCACACUUCAUCCAGAUGUCAGCACC | 0.176 ratio |
| AAUGUAGUGUUUUUCCUUUAUAACAUACUUCAGUGACUAAAACUGCUGGCAGCAGUUAAGUCCGUGGGCUUUCUGACUGCAGAUAGGAUUAUUCAUUAAAAAUGUCUGUGUGAUGCUGUA | 2.23 ratio |
| AAAGCAAUAAAUGUAGAUCUUCAAAGUGAUGCUGCUCUGCAGGUGGACAUUUCUGAUGCUCUCCGUGAGCGGGAUAAAGUAAAAUUCACUGUUCACACAAAGAGUUCAUUGCCAAAUUUU | 0.358 ratio |
| GUCUGGAGUCUCUCGGGACACGACCAGCUGAUUGUAGACACCGUGUUGAUAUCACCCGAAAUGAAGACCUUGUCAACCAAUAGAGGAACUGUCUGAACCAACUGGGUACUGAUGUCUCUG | 0.101 ratio |

Block 3 — technique: protein binding microarray; molecule type: double-stranded DNA, one strand shown; medium: in vitro; concentration: not given; baseline: not given; direction: higher = stronger binding
Target: Histone acetyltransferase KAT6A, winged helix 1, GST fusion (KAT6A, Homo sapiens, UniProt Q92794, residues 1-85)
Setting: 8-mer, flanks averaged, mean of 2 arrays, mostly near background
Target sequence (chain): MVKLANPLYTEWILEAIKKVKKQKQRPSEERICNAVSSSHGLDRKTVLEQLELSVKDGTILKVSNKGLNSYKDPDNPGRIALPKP
| Strand | E-score |
| --- | --- |
| GCACTTGA | 0.0383 |
| CGCCTGAG | 0.135 |
| ACAGAGAC | -0.0392 |
| AATAAATC | -0.00821 |
| ATCCATTG | -0.181 |
| AAGGCATC | -0.201 |
| ATACGACC | 0.0609 |
| CGATACAA | -0.0852 |
| ATGAGACG | 0.116 |

Other studies, line by line
| Substance | target | test | test system | conditions | scale | measurement | result |
| --- | --- | --- | --- | --- | --- | --- | --- |
| PhoQ, residues 284 288 289 292 302 303 NLALSC | PhoP, residues 12 14 15 18 19 ICWRQ (Escherichia coli, UniProt P23836) | Sort-seq, measured: YFP reporter | E. coli | PhoQ-PhoP variant library, added: 10 µM Mg2+ | baseline: high Mg2+ state, higher = stronger signaling | fold induction | 6.62 |

Repeated from above (other studies, line by line):
| Substance | target | test | test system | conditions | scale | measurement | result |
| --- | --- | --- | --- | --- | --- | --- | --- |
| PhoQ, residues 284 288 289 292 302 303 NLALSC | PhoP, residues 12 14 15 18 19 ICWRQ (Escherichia coli, UniProt P23836) | Sort-seq, measured: YFP reporter | E. coli | PhoQ-PhoP variant library, added: 10 µM Mg2+ | baseline: high Mg2+ state, higher = stronger signaling | fold induction | 6.62 |
